Assay results gathered from unrelated publications.
A part holds a random share of what one study measured.

Set 1
Target: Fragile X messenger ribonucleoprotein 1, C-terminal low-complexity region (Fmr1, Mus musculus, UniProt P35922)
Method: RNA Bind-n-Seq
Form: RNA
Medium: in vitro
Tested at: 200 nM
Setting: whole 134-nt RNA, ends assumed
With: 150 mM LiCl
Reference: input library
Reading: higher = stronger binding
Library: 7-deaza-guanosine replaces G
All sequences stand within: GGGAGUUCUACAGUCCGACGAUC … UGGAAUUCUCGGGUGUCAAGG
Sequence	log2 enrichment
GUCCUGUGCUACACAUCGUAUGUACCGAAUCGGGGUUUGGGGAGGGGAAAAAAAGGGGAAAGUAUUAUGUUACGCCGUUCGGAUCUGCAC	0.266
UCCUCAAGUCCUGUGCUACACAUCGUAUGUACCGAAUCGGUUUGGUGGAGGAAAGUAUUAUGUUACGCCGUUCGGAUCUGCACUUCCAGC	-1.62
AAGUCCUGUGCUACACAUCGUAUGUACCGAAUCGGCCCCGGGCCCCGGGCCCCGGGGAAAGUAUUAUGUUACGCCGUUCGGAUCUGCACU	-3.03
AAGACAUUUGUUGUAUUUAUGGUUGUAACUGUACAUGCUUAUCAGGAUGAGACUGAAAGAAGGUAGGGCAAAAAUGGUUGAAUCUAUUUU	-1.71
GUCCUGUGCUACACAUCGUAUGUACCGAAUCGGGGUUUUUGGGGUGGGGAAAAAGGGGAAAGUAUUAUGUUACGCCGUUCGGAUCUGCAC	-0.0414
CUCAAGUCCUGUGCUACACAUCGUAUGUACCGAAUCGGAGGAAAGGUUUUUGGAAAGUAUUAUGUUACGCCGUUCGGAUCUGCACUUCCA	-0.973
CAAGUCCUGUGCUACACAUCGUAUGUACCGAAUCGGGAAAGGGAAAAAGGGUGGGAAAGUAUUAUGUUACGCCGUUCGGAUCUGCACUUC	-1.1
AAGUCCUGUGCUACACAUCGUAUGUACCGAAUCGGGCCCGGGGCCCGGGGCCCGGGAAAGUAUUAUGUUACGCCGUUCGGAUCUGCACUU	-2.92
UCAAGUCCUGUGCUACACAUCGUAUGUACCGAAUCGGGGUUUGGUUUGGUUUGGAAAGUAUUAUGUUACGCCGUUCGGAUCUGCACUUCC	-0.87
CCUCAAGUCCUGUGCUACACAUCGUAUGUACCGAAUCGGGCGGCGGGCGGGGAAAGUAUUAUGUUACGCCGUUCGGAUCUGCACUUCCAG	0.462
UAACUUUAGAGGAGGAUCUGAUGGAUAUGGCAGUGCACGUGGAUUUGGGGAUGGCUAUAAUGGGUAUGGAGGAGGACCUGGAGGUGGCAA	0.413

Set 2
Target: RNA binding protein fox-1 homolog 2, RRM domain, GST-SBP tag (RBFOX2, Homo sapiens, UniProt O43251-10, residues 100-194)
Method: RNA Bind-n-Seq
Form: RNA
Medium: in vitro
Tested at: 365 nM
Setting: natural RNA segment, single round, ends assumed
Reference: no-protein control
Reading: higher = stronger binding
All sequences stand within: GGGAGUUCUACAGUCCGACGAUC … UGGAAUUCUCGGGUGCCAA
Construct (chain): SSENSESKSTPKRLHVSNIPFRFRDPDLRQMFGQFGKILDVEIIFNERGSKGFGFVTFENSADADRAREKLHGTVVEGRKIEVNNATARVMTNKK
Sequence	RBNS enrichment (R)
CUUCUGCCCUAACUAUUGUGUAGCCUCUUAUGCUGAAAUCGGCUUCUGCUGGCUUCUCCGGCUUUCAGAGCCCUGAAACAAAGAGAAACAGGAUCUGUCCCUACCCAGCA	0.632
ACCACCUGUAUAGUGGGGAAGUUCAGGGAGUGCACGCCUGAGUUAUGUGCUUUGUCAUUUUCUUUGCUAAACAAAAGAGGCUAUGAAAGAACUAAAUAUGAGUACAUAAA	0.692
GUGCCUAUGAAAUCUCAUCCAACUUUUGAUUAUUCAUGGAUUGAUUAUCCGCUUUUUUUUUGCUUUUUUGCUGCCAUUGCUAUGCCUGGUCUCGUCUGCAUCAAAUAUAC	1.79
UGCCAAACUUGGUGUGGCCAGGAAAGGGCAGUCCUGAGGGAGAAGACAGGAUUCAGGGCAGUGCUCCGAAGCUGUGUGCUCACCUGGUUGGCUCAUCAAACCUGGCAACC	0.264
UUAUUUUCAAAUAAAAAAUAGUUUGGCCACUUAACAAAUUUGAUUUAUAAAUCUUUCAAAUUAGUUCCUUUUUAGAAUUUACCAACAGGUUCAAAGCAUACUUUUCAUGA	1.4
UUGAUAGCACAACACAAAUUCCAUCCAAGAGGAGAAUCUUCCCCAGGGUUUAGUCCUGGGGCUGGCACUCGUUGUGACUUACACAGAGCAAAAUUGUGCUAAAGGCUUUU	0.388
AAAACAAAUGAUUAGUUAAAAAAAGAAAAUAUACAUUUGUUGGUAACUAAUGUUAUUUUUUAAAACCUGGACCUUUUCUGGAAGGGCAGCAUAUAAAAACAUCAGUCCCG	0.546
AAUGAGCAAUUCUGGGAAUCACGCAGUGGGUUUUAAGGUAGUUAAUAUCUAUGGUAUAUUAAAAGGAGCAGUCAUCAUAUACUACUGCAUUUCCACUGAAGAGCCAAAAG	0.424
UUCUAGCCUAUUUACCUGCAGGCUGAGCCACUCUCUUCCCUUUCCCCAGCAUCACUCCCCAAGGAAGAGCCAAUGUUUUCCACCCAUAAUCCUUUCUGCCGACCCCUAGU	1.62
UGAAUAAAGAACUAAGUAAUAUGGGAAAUGCAGCAAUUUCUGGACUAGCUGAGCCGAUUCCUUCCUGUGAGCACACUGUAAGCUUUCAAGUUCUCUGGGCAGGAAUUACA	0.416
GAUUUAUGUCCCUUCCCUCCCCCCUAAGUACAUCAGGGAACCUUUCCACACUAUAAAUGAUAUGACUACUGUUUGGGGUUUCUGGGCCCCCAUCCGUGUACGUAUGUGGC	0.713
AGUAGCUUCCUGCCUGGGAGAUGGCUCUCUCUGCAGAAGUCUGGUGUUUUAGCCUUCAGGUGUUUGGUUUUGUAUGUGCUCCCUCAUUUUAAACAUUAAACCAAACUUCU	0.455

Set 3
Target: Sal-like protein 4, full length isoform B (SALL4, Homo sapiens, UniProt Q9UJQ4-2, residues 1-616)
Method: universal PBM
Form: double-stranded DNA, one strand shown
Medium: in vitro
Tested at: not given
Setting: 8-mer, flanks averaged, mean of replicates
Reading: higher = stronger binding
Sequence	E-score
GCACTGAA	0.0162
AGAACGAA	0.0916
ATCGGGGG	-0.197
GATGTCAC	-0.0649
AGAATCGA	-0.0761
AGTACGGC	-0.134
AAAGTCAC	0.144
GCCGAGGC	-0.241
GGGTAGGA	-0.114
AGGATCCT	-0.102
AAAGGCTG	-0.178
TATTTTCA	0.313
ACATACCC	0.14
AGGAAGTC	-0.054
AAACTCTT	-0.0445
AGGAAGTG	-0.0931
AAACTCGA	-0.0515
CAGGCGAG	-0.244
CATCCTGC	-0.0625
CATCAAAC	0.0398

Set 4
Target: Protein C-ets-1 (ETS1, Homo sapiens, UniProt P14921, residues 1-441, K379A, full length assumed)
Method: protein-binding microarray
Form: double-stranded DNA, one strand shown
Medium: in vitro
Tested at: not given
Setting: k-mer, scored over probes, only values ≥0.25
Reading: higher = stronger binding
Construct (chain): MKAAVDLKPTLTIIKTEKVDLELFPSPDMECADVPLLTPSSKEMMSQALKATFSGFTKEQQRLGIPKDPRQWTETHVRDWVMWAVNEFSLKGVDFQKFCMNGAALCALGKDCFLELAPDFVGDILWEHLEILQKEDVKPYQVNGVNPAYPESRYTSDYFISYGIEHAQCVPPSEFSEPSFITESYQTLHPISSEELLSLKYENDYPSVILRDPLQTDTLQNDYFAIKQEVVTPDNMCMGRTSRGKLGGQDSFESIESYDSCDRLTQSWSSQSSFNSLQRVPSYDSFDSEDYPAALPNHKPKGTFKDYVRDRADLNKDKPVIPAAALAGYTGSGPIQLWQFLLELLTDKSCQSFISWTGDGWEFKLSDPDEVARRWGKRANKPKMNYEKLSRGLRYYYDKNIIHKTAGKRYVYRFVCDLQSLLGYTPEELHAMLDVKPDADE
Sequence	E-score
CATATACG	0.274
ACGACGTA	0.292
ACGAGTAA	0.276
TGACGACA	0.28
CACAGTTA	0.263
CATAATAC	0.314
CGCCGACG	0.274
CGGTGGGC	0.284
GGTCGGTA	0.308
AGCGGAAA	0.256
CTCCGGTC	0.341
CGGTTCGA	0.316
ACGATCGA	0.285
CGATGTAC	0.259
AACATTGT	0.357
CCGATACA	0.262
GACCGGAA	0.49
AATACACC	0.279
ATGCATCA	0.271
ACCGGGTA	0.414
AACACATA	0.298
CGCCAAAC	0.252

Repeated from above (set 4):
Sequence	E-score
ACGATCGA	0.285
CGATGTAC	0.259
CATAATAC	0.314
CGCCGACG	0.274
AGCGGAAA	0.256
CGCCAAAC	0.252
ACGAGTAA	0.276
ACGACGTA	0.292
CACAGTTA	0.263
ATGCATCA	0.271
